Earlier results that unrelated publications cite.
Each line is one published result; not all experiments were run side by side. ± gives the spread as reported. ≈ marks a conversion by molar mass, not a printed value.
UniProt P42336, sequence (whole entry, unmodified, looked up): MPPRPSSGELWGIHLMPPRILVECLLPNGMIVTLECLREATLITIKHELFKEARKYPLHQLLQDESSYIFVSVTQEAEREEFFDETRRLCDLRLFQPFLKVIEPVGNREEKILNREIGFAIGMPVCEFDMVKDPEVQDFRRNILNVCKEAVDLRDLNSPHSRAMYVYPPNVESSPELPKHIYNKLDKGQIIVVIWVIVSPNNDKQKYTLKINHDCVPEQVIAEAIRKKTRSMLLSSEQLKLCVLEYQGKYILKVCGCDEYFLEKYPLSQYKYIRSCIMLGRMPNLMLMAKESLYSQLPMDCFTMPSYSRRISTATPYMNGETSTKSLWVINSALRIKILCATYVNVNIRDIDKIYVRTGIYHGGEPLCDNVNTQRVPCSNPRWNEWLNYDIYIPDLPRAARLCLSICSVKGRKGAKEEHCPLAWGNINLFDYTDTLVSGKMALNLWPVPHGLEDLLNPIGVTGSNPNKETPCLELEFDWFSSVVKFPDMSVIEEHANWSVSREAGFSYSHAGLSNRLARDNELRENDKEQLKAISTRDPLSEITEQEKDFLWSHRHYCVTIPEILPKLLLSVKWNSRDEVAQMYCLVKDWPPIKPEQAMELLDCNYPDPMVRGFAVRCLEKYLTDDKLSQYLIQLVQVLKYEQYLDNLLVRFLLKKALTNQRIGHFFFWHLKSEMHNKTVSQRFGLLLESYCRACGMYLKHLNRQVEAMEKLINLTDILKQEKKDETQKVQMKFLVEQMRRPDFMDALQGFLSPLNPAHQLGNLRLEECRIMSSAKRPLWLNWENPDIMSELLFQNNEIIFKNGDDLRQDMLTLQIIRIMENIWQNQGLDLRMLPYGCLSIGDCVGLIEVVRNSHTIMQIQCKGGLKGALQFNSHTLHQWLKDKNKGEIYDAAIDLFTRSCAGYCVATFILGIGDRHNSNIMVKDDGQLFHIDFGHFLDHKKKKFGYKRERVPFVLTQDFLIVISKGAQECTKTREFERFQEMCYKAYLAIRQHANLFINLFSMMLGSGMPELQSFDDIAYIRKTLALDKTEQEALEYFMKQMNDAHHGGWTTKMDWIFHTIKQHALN
UniProt Q9UBF8, sequence (whole entry, looked up): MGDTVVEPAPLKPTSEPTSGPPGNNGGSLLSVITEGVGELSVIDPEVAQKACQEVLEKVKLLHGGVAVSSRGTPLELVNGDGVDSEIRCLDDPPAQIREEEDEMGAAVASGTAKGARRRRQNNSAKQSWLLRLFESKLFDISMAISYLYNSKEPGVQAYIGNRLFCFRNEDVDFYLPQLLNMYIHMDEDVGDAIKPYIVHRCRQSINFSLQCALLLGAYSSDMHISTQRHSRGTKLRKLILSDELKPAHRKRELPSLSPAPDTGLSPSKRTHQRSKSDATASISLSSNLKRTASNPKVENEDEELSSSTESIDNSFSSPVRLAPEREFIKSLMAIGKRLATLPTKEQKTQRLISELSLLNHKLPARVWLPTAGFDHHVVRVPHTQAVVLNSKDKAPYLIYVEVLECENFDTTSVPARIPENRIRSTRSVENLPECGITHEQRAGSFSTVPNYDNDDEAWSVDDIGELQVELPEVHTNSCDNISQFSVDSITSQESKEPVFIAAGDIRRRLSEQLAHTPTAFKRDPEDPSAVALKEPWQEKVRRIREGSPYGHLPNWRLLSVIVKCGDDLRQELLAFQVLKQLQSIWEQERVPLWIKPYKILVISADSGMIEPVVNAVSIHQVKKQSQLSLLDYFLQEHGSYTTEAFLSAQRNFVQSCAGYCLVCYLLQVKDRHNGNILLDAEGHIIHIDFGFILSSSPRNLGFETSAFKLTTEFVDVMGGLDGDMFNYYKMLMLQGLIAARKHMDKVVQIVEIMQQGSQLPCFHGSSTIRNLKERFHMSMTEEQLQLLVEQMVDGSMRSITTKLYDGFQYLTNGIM
UniProt Q9H9B1, sequence (whole entry, looked up): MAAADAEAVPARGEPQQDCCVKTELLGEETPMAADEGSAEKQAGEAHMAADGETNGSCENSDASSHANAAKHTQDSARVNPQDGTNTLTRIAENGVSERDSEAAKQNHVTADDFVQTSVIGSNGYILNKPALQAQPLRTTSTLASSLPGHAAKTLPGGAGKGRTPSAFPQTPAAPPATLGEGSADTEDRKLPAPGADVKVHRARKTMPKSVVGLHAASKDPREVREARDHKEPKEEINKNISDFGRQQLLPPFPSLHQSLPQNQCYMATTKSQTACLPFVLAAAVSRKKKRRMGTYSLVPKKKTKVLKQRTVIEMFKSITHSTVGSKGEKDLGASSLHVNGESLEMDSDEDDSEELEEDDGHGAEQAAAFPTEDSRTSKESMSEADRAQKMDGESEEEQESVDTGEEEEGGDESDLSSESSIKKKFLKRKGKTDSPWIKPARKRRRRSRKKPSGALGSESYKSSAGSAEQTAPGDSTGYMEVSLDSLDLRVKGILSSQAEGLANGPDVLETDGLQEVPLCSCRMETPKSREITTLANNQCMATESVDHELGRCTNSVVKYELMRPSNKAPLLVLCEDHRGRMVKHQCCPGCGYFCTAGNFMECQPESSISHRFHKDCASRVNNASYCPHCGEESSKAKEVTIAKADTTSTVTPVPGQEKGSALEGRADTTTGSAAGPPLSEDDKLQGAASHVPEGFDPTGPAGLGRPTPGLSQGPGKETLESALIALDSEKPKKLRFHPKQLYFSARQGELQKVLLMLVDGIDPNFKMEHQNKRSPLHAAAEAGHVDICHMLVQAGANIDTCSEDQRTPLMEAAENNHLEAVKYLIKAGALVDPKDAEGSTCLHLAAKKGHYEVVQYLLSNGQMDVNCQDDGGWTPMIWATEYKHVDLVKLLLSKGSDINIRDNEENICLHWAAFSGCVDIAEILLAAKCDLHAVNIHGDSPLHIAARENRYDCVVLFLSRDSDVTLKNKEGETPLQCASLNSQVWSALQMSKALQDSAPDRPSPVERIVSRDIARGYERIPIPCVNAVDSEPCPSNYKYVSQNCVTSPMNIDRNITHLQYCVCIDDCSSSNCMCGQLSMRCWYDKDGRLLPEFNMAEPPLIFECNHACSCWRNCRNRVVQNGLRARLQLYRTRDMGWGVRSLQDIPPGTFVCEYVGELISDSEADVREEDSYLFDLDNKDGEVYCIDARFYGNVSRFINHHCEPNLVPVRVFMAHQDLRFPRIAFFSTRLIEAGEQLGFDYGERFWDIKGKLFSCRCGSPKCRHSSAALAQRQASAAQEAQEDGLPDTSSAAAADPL
UniProt Q8NE63, sequence (whole entry, looked up): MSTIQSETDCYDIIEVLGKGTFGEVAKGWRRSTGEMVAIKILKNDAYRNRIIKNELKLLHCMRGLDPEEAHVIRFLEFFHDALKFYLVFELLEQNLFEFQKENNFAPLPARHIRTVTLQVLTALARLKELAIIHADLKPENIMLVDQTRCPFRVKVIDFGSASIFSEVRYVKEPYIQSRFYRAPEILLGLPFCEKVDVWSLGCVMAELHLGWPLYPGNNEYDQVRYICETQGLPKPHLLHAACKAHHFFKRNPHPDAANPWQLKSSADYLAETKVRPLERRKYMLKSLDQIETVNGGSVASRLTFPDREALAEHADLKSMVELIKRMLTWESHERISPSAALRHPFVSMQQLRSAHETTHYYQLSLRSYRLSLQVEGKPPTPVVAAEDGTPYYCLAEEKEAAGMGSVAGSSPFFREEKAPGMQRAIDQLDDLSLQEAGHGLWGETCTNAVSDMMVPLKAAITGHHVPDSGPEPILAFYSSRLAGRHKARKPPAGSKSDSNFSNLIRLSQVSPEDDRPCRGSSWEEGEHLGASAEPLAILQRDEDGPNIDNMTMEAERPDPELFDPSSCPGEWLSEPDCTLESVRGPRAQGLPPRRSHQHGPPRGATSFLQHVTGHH

For `C=CC(=O)N1CCC(C(=O)NCC(=O)N2CCN(c3nc(-c4cnc(N)nc4C(F)F)nc(N4CCOCC4)n3)CC2)CC1`, the remaining activity was 5.9% (PIK3CA (Homo sapiens, UniProt P42336, H1047Y); kinase activity; 1 µM).
`C=CC(=O)Nc1cc(Nc2nccc(-c3cn(C)c4ccccc34)n2)c(OC)cc1N(C)CCN(C)C` — result for “objective response rate”: 80% (patients with EGFR-mutant NSCLC; dose not given, first-line clinical trial).
The remaining activity of `Cc1cc(NC(=O)c2cccc(NC(=O)/C=C/CN(C)C)c2)ccc1Nc1nccc(-c2cccnc2)n1` is reported as 4% (HIPK4 (Homo sapiens, UniProt Q8NE63); enzyme activity, inhibitor; 1 µM; baseline: vehicle).
Under “HIV RNA reduction”, `COC[C@@H](c1ccc(C(F)(F)F)cc1)N1CCN(C2(C)CCN(C(=O)c3c(C)ncnc3C)CC2)C[C@@H]1C` is recorded as 0.93 log10 copies/mL (treatment-naive HIV subjects; 25 mg once daily, day 14, monotherapy without ritonavir).
With `CC1(C)CCC(CN2CCN(c3ccc(C(=O)NS(=O)(=O)c4ccc(NCC5CCOCC5)c([N+](=O)[O-])c4)c(Oc4cnc5[nH]ccc5c4)c3)CC2)=C(c2ccc(Cl)cc2)C1` the remission rate was 61% (human, previously untreated elderly AML; dose not given, sample C patients, added: azacitidine or decitabine).
`COc1cc(NC(=O)CCN2CCC(OC(=O)Nc3ccccc3-c3ccccc3)CC2)c(Cl)cc1CNC[C@H](O)c1ccc(O)c2[nH]c(=O)ccc12`: “placebo-corrected trough FEV1 change” 92 mL (COPD patients; inhaled, 100 µg twice daily, 12 h postdose, dosing day 1; baseline: baseline).
`COC(=O)[C@H](Cc1ccccc1)NC(=O)[C@@H](N)CC(=O)O` gave a sweetness potency of 200 × sucrose (sensory evaluation; human sensory panel, water; baseline: sucrose).
`Cc1nc(NC(=O)N2CCC[C@H]2C(N)=O)sc1-c1ccnc(C(C)(C)C(F)(F)F)c1` gave a remaining binding of 1.7% (PI4KB (Homo sapiens, UniProt Q9UBF8); KinomeScan competition binding; 10 µM).
Under “objective response rate”, `Cc1cc(C)c(CNC(=O)c2cc(Cl)c3c(c2C)O[C@@](C)([C@H]2CC[C@H](N(C)C)CC2)O3)c(=O)[nH]1` is recorded as 48% (Japanese relapsed/refractory ATLL patients; dose not given).
Under “patients meeting progression-free survival endpoint”, `CNC(=O)c1ccc(Nc2ncc(C(F)(F)F)c(NCc3nccnc3N(C)S(C)(=O)=O)n2)cc1` is recorded as 28% (patients with KRAS mutant NSCLC; dose not given, 12 weeks; baseline: patients).
`COC(=O)C1=C(C)NC(C)=C(C(=O)OC)C1c1c(Cl)nc2sc(Cl)cn12` has an inhibition of 34 ± 2.9% (calcium-induced contraction; guinea pig aortic strip; 50 µM, added: K+ 80 mM depolarisation).
`COc1nccnc1C(C)C`: “odour detection threshold” 0.004 µg/kg (human, water).
The relaxivity r1 of `CNC[C@H](O)[C@@H](O)[C@H](O)[C@H](O)CO.O=C([O-])CN1CCN(CC(=O)[O-])CCN(CC(=O)O)CCN(CC(=O)[O-])CC1.[Gd+3]` is reported as 3.5 mM⁻¹ s⁻¹ (human plasma; 310 K, 3 T).
For `Cc1cc(-c2nccc3c2ccn3CC(=O)Nc2ccc(-c3cnccn3)cn2)ccn1`, “WNT pathway gene expression” read “decreased” (mouse, bleomycin-induced pulmonary fibrosis, lung; oral, 25 mg/kg once daily, days 7-21).
With `CCN(c1cc(-c2ccc(CN3CCOCC3)cc2)cc(C(=O)NCc2c(C)cc(C)[nH]c2=O)c1C)C1CCOCC1` the inhibition was 6 ± 6% (EHMT1 (Homo sapiens, UniProt Q9H9B1); enzyme activity, inhibitor; 1 µM).
`OCc1ccc(O[C@@H]2O[C@H](CO)[C@@H](O)[C@H](O)[C@H]2O)cc1` — result for “postoperative delirium incidence”: 19.5% (human surgical patients; iv infusion, 600 mg twice daily, postoperative day 6).
`CNC(C)C1CCC(N)C(OC2C(N)CC(N)C(OC3OCC(C)(O)C(NC)C3O)C2O)O1` (centres unmarked) has an MIC of 2 mg/L (≈ 4.19 µM) (Pseudomonas aeruginosa; clinical isolate RKI-No_321/16).
With `O=C(c1ccc(C#Cc2cccc(F)c2)nc1)N1CCC(O)CC1` the fEPSP slope was 103 ± 2% (hippocampal CA1 Schaffer collateral synapse; concentration not given; baseline: baseline).
Under “confirmed objective response rate”, `C=CC(=O)NC1CCN(c2ncc3ncnc(Nc4ccc(Oc5ccc6c(c5)ncn6C)c(C)c4)c3n2)CC1` is recorded as 71% (pretreated HER2-mutant NSCLC patients; 120 mg once daily).
`C[C@H]1COCCN1c1nc(-c2cnc(N)cc2C(F)F)nc(N2CCOCC2)n1` has a GI50 of 546 nM (U-87 MG).
Under “placebo-corrected trough FEV1 change”, `C[N+]1(C)CCC(OC(=O)C(O)(c2ccccc2)C2CCCC2)C1` (centres unmarked) is recorded as 113 mL (COPD patients; inhaled, 50 µg once daily, 24 h postdose, dosing day 182; baseline: baseline).
For `C#CCNS(=O)(=O)c1ccc(CCN(Cc2cc(Cl)ccc2OCCC)C(=O)Cc2ccsc2)cc1`, “serum IL-1β suppression” read roughly 65% (LPS-challenged mouse; intraperitoneal, 10 mg/kg).
With `Cc1c(C#N)cccc1[C@@H](C)Nc1nnc(C)c2cnc(N3CCOCC3)cc12` the IC50 was 114 ± 5 nM (NCI-H358; 3D cell viability; 14 d).
`CN1CC[C@H](c2c(O)cc(O)c3c(=O)cc(-c4ccccc4Cl)oc23)[C@H](O)C1`: “partial response rate” 14% (patients with AML, CLL or non-Hodgkin lymphoma; dose not given).
With `CC1(C)S[C@@H]2[C@H](NC(=O)[C@H](N)c3ccccc3)C(=O)N2[C@H]1C(=O)O` the MIC was greater than 16 mg/L (Pseudomonas aeruginosa; clinical isolate RKI-No_696/15).
With `Nc1cc(C(F)(F)F)c(-c2nc(N3CCOCC3)nc(N3CCOCC3)n2)cn1` the remaining activity was 61% (DYRK1B (Homo sapiens, UniProt Q9Y463); enzyme activity; 10 µM; baseline: untreated).
Under “odour detection threshold”, `Cc1cnccn1` is recorded as 60000 µg/kg (human, water).
With `Cc1ccc(Nc2nccc(N(C)c3ccc4c(C)n(C)nc4c3)n2)cc1S(N)(=O)=O` the progression-free survival was 4.6 months (post-chemotherapy soft tissue sarcoma; dose not given).
`Nc1ccn([C@@H]2CS[C@H](CO)O2)c(=O)n1` gave an HBsAg reduction of 0.06 log10 IU/mL (chronic hepatitis B patients; dose not given, 6 months, added: entecavir; baseline: baseline).

Excerpt of the above:
Under “odour detection threshold”, `Cc1cnccn1` is recorded as 60000 µg/kg (human, water).
With `Cc1ccc(Nc2nccc(N(C)c3ccc4c(C)n(C)nc4c3)n2)cc1S(N)(=O)=O` the progression-free survival was 4.6 months (post-chemotherapy soft tissue sarcoma; dose not given).
`Nc1ccn([C@@H]2CS[C@H](CO)O2)c(=O)n1` gave an HBsAg reduction of 0.06 log10 IU/mL (chronic hepatitis B patients; dose not given, 6 months, added: entecavir; baseline: baseline).
